Published values gathered from unrelated publications.
Organism: Staphylococcus aureus

| SMILES | assay | test system | setting | MIC |
| --- | --- | --- | --- | --- |
| COc1cc(/C=N/N2C(=O)c3ccccc3NC2c2ccc(O)c(OC)c2)ccc1O (centres unmarked) | microbial growth, broth dilution | – | 24 h, drug-resistant strain, clinical isolate | > 256 µg/mL |
| NC[C@@H]1O[C@H](O[C@H]2[C@@H](O)[C@H](O[C@@H]3[C@@H](O)[C@H](N)C[C@H](N)[C@H]3O[C@H]3O[C@H](CO)[C@@H](CCO)[C@H](O)[C@H]3N)O[C@@H]2CO)[C@H](N)[C@@H](O)[C@@H]1O | – | methicillin-resistant, AAC(6') ANT(4',4'') APH(3') | – | 2 µg/mL |
| O=C(O)c1ccc(-n2cc(/C=N/Nc3cccc(Cl)c3F)c(-c3ccc4ccccc4c3)n2)cc1 | microbial growth | BAA2312 | drug-resistant strain | 3.12 µg/mL |
| CCCCCCCCCCCCCCCC(=O)N[C@@H](Cc1c[nH]cn1)C(=O)N[C@@H](Cc1ccccc1)C(=O)N[C@@H](CCCNC(=N)N)C(=O)N[C@@H](Cc1c[nH]c2ccccc12)C(=O)NCC(=O)N[C@@H](CCCCN)C(=O)N1CCC[C@H]1C(=O)N[C@H](C(N)=O)C(C)C | broth microdilution | MRSA ATCC 33591 | Mueller-Hinton broth | > 45.5 µM |
| CCCCCCCCOC(=O)[C@@H]1NC(=O)[C@@H]2Cc3ccc(cc3)Oc3cc4cc(c3O)-c3ccc5c(c[nH]c5c3)C[C@@H](NC(=O)C(N)c3ccc(O)cc3)C(=O)N[C@H](c3ccc(O)cc3)C(=O)N[C@H]4C(=O)N[C@@H](C(=O)N2C)c2ccc(cc2)Oc2cc1ccc2O (some centres unmarked) | – | ATCC 33591 MRSA, Mueller-Hinton broth | – | > 128 µg/mL |
| CC(C)C[C@@H]1NC(=O)[C@H](C)NC(=O)[C@H](NC(=O)[C@H](C)NC(=O)[C@@H](CCCCN)NC(=O)[C@@H](CC(C)C)NC(=O)[C@@H](N)Cc2ccccc2)[C@H](C(N)=O)OC(=O)[C@H](CC(C)C)NC1=O | – | MRSA ATCC 700698 | TFA salt | 8 µg/mL |
| CC(C)C[C@H](NC(=O)[C@H](CC(C)C)NC(=O)[C@H](CCCNC(=N)N)NC(=O)[C@H](CCCNC(=N)N)NC(=O)[C@H](CC(C)C)NC(=O)[C@H](CC(C)C)NC(=O)[C@H](CCCNC(=N)N)NC(=O)CCCCCNC(=O)/C=C/c1ccc(O)c(O)c1)C(=O)N[C@@H](CCCNC(=N)N)C(N)=O | broth microdilution | ATCC 25923 | 24 h, 37 °C | 73 µM |
| CC[C@@H](C)[C@H]1NC(=O)[C@H]([C@@H](C)CC)NC(=O)[C@@H](CCCN)NC(=O)[C@@H](NC(=O)[C@@H](NC(=O)[C@@H](CCC(=O)O)NC(=O)[C@H](CC(C)C)NC(=O)[C@@H]2CSC([C@@H](N)[C@@H](C)CC)=N2)[C@@H](C)CC)CCCCNC(=O)[C@H](CC(N)=O)NC(=O)[C@@H](CC(=O)O)NC(=O)[C@H](Cc2c[nH]cn2)NC1=O | broth microdilution | ATCC 29213, LB medium | 18 h, 37 °C, together with: ZnSO4 0.3 mM | 4 µg/mL |
| CC[C@@H]1NC(=O)[C@@H]([C@@H](C)O)NC(=O)CNC(=O)[C@H](CC(=O)O)NC(=O)CNC(=O)[C@H](CC(=O)O)NC(=O)CNC(=O)[C@H]2CCCCN2C(=O)[C@@H](NC(=O)[C@H](CC(=O)O)NC(=O)/C=C/CCCCCCCCCC(C)C)CNC(=O)[C@@H]2CCCN2C1=O | – | MRSA USA300 | together with: Ca2+ 10 mM | 8 µg/mL |
| CC[C@H](C)[C@H](NC(=O)[C@@H](NC(=O)[C@H](CCCCN)NC(=O)CNC(=O)[C@@H](NC(=O)[C@@H](NC(=O)[C@H](CO)NC(=O)[C@@H](NC(=O)[C@@H](NC(=O)[C@@H]1CCCN1C(=O)[C@@H](NC(=O)[C@@H](NC(=O)CN)[C@@H](C)CC)[C@@H](C)CC)[C@@H](C)CC)[C@@H](C)CC)[C@@H](C)CC)[C@@H](C)CC)[C@@H](C)CC)C(N)=O | broth microdilution | USA300 MRSA | – | > 34 µM |
| CCCN1CCNC1=[S+][Ag-3]([O][N+](=O)[O-])([P+](c1ccccc1)(c1ccccc1)c1ccccc1)[P+](c1ccccc1)(c1ccccc1)c1ccccc1 | agar dilution | MTCC 740 | 24 h, 37 °C | 50 µg/mL |
| CC(C)C1=CC2=CCC3C(C)(C(=O)OCCC[N+](C)(C)C)CCCC3(C)C2CC1 (centres unmarked) | microbial growth | ATCCBAA44 MRSA | drug-resistant strain | 19.5 µg/mL |
| CC(C)C[C@H](NC(=O)[C@H](CC(C)C)NC(=O)[C@H](C)NC(=O)[C@H](NC(=O)[C@H](CO)NC(=O)[C@@H](CCCCN)NC(=O)[C@@H](CC(C)C)NC(=O)[C@@H](N)Cc1ccccc1)[C@@H](O)C(N)=O)C(=O)O | – | MSSA ATCC 29213 | TFA salt | > 32 µg/mL |
| CC[C@H](C)[C@H](NC(=O)[C@@H](CCCNC(=N)N)NC(=O)[C@H](CCCNC(=N)N)NC(=O)[C@H](CCCNC(=N)N)NC(=O)[C@H](Cc1c[nH]c2ccccc12)NC(=O)[C@H](CCCNC(=N)N)NC(=O)[C@@H]1CCCN1C(=O)[C@H](CCCNC(=N)N)NC(=O)[C@@H]1CCCN1C(=O)[C@H](CC(C)C)NC(=O)[C@H](Cc1ccc(O)cc1)NC(=O)[C@@H]1CCCN1C(=O)[C@@H]1CCCN1C(=O)[C@H](CCCCN)NC(=O)[C@H](CC(=O)O)NC(=O)[C@@H](N)C(C)C)C(=O)N[C@@H](Cc1ccc(O)cc1)C(=O)N[C@@H](CC(N)=O)C(=O)N[C@H](CCCNC(=N)N)C(N)=O | broth microdilution | DSM 6247 | 18 h | 16 µg/mL |
| CC[C@H](C)[C@H](NC(=O)[C@H](CCCN)NC(=O)[C@H](CC(N)=O)NC(=O)[C@H](CC(C)C)NC(=O)[C@H](Cc1ccccc1)NC(=O)[C@H](CCCN)NC(=O)[C@H](CCCNC(=N)N)NC(=O)[C@H](CC(C)C)NC(=O)[C@H](CC(C)C)NC(=O)[C@H](CCCN)NC(=O)[C@H](CCCNC(=N)N)NC(=O)[C@H](CC(C)C)NC(=O)CNC(C)=O)C(=O)N[C@@H](CCCN)C(=O)N[C@@H](CCCNC(=N)N)C(N)=O | broth microdilution | multidrug-resistant | – | 3.12 µM |
| CC(=O)N[C@@H](CCCNC(=N)N)C(=O)N[C@@H](Cc1c[nH]c2ccccc12)C(=O)N[C@@H](CCCNC(=N)N)C(=O)N[C@@H](Cc1c[nH]c2ccccc12)C(=O)N[C@@H](Cc1c[nH]c2ccccc12)C(=O)N[C@@H](CCCCN)C(=O)N1CCC[C@H]1C(=O)N[C@H](C(N)=O)C(C)C | – | MRSA ATCC 33591, Mueller-Hinton broth | overnight, 37 °C | > 90.8 µM |
| CCCCc1ccc(N2C(=O)/C(=N\NC(=N)N)c3ccccc32)cc1 | broth microdilution | BAA41 MRSA | 18 h, 37 °C | 6 µg/mL |
| COc1cc(/C=N/N2C(=O)c3ccccc3NC2c2cc(OC)c(O)c(OC)c2)cc(OC)c1O (centres unmarked) | microbial growth, broth dilution | MRSA | 24 h, drug-resistant strain, clinical isolate | > 256 µg/mL |
| CC(C)[C@H](NC(=O)[C@H](CCCCN)NC(=O)[C@H](CCCNC(=N)N)NC(=O)[C@@H](NC(=O)[C@H](C)NC(=O)[C@H](CC(N)=O)NC(=O)[C@H](CCCNC(=N)N)NC(=O)[C@@H](NC(=O)[C@H](CCCCN)NC(=O)[C@H](CCCCN)NC(=O)[C@@H](NC(=O)[C@@H](NC(=O)[C@H](CCCNC(=N)N)NC(=O)[C@H](CCCNC(=N)N)NC(=O)[C@H](Cc1c[nH]c2ccccc12)NC(=O)[C@H](Cc1c[nH]c2ccccc12)NC(=O)CN)[C@@H](C)O)C(C)C)C(C)C)C(C)C)C(=O)O | bacterial growth | MRSA clinical isolate | 18 h | 64 µg/mL |
| CCOC(=O)c1cnc(N2CC[C@@H](NC(=O)c3[nH]c(C)c(Cl)c3Cl)[C@@H](OC)C2)o1 | – | ATCC 29213 | – | 2 µg/mL |
| NCCCC[C@H](NC(=O)[C@H](CCCCN)NC(=O)[C@H](Cc1ccccc1)NC(=O)[C@@H]1CCCN1C(=O)[C@H](Cc1c[nH]c2ccccc12)NC(=O)[C@H](Cc1c[nH]c2ccccc12)NC(=O)[C@H](Cc1c[nH]c2ccccc12)NC(=O)[C@@H]1CCCN1C(=O)[C@H](Cc1ccccc1)NC(=O)[C@H](CCCCN)NC(=O)[C@@H](N)CCCCN)C(N)=O | – | MRSA AMC 201, RPMI medium | 24 h, 37 °C | 30 µM |
| C[C@@H](N)[C@H](O)CCCCCCCC(=O)CCCCCCCCCCCCCC[C@@H](O[C@@H]1O[C@H](CO)[C@H](O)[C@H](O)[C@H]1O)[C@H](N)CO | microbial growth, resazurin | ATCC12600 | 6 h | 11.3 µM |
| COc1ccc2ccc3c(c2c1)C=[N+]1C2CCCCC2[N+]2=Cc4cc(C)ccc4[O][Au-]21[O]3.F[P-](F)(F)(F)(F)F (centres unmarked) | bacterial growth, broth microdilution | vancomycin-intermediate | 24 h | > 20 µM |
| CN[C@@H]1[C@H](O)[C@H](NC)[C@H]2O[C@]3(O)[C@H](O[C@@H]2[C@H]1O)O[C@H](C)C[C@@]3(O)CNCc1ccc(Cl)cc1 | – | MRSA NRS70 | – | 12.5 to 25 µg/mL |
| CC(=O)OCc1cc(-c2nc3ccccc3n(-c3ccc([N+](=O)[O-])cc3[N+](=O)[O-])c2=O)nn1-c1ccccc1 | microbial growth | – | clinical isolate | 500 µg/mL |
| CCCCCCCCCCCC[S+]([O-])CC1OC(OC2C(N)CC(N)C(OC3OC(CN)C(O)CC3N)C2O)C(O)C(N)C1O (mixture of isomers) | – | NorA | – | 37.5 µg/mL |
| CC[C@H](C)[C@H](NC(=O)[C@H](CCN)NC(=O)[C@H](Cc1ccccc1)NC(=O)[C@H](Cc1ccccc1)NC(=O)CCCCCOC(=O)c1cn(C2CC2)c2cc(N3CCNCC3)c(F)cc2c1=O)C(=O)N[C@@H](CCN)C(=O)N[C@H](Cc1ccccc1)C(=O)N[C@@H](CC(C)C)C(=O)N[C@@H](CCN)C(=O)N[C@@H](C(=O)N[C@@H](CC(C)C)C(=O)N[C@@H](CO)C(N)=O)C(C)C | – | – | 24 h, 37 °C | 6.25 µM |
| COc1ccc2c(oc3c4ccc(O)cc4oc(=O)c23)c1CC=C(C)C | – | – | – | inactive |
| CC[C@H](C)[C@H](NC(=O)[C@@H](Cc1ccccc1)NC)C(=O)N[C@@H](CO)C(=O)N[C@H](CCC(N)=O)C(=O)N[C@@H](C(=O)N[C@H](C(=O)N[C@@H](CO)C(=O)N[C@H]1C(=O)N[C@@H](C)C(=O)N[C@@H](C2CCCCC2)C(=O)N[C@@H]([C@@H](C)CC)C(=O)O[C@H]1C)[C@@H](C)CC)[C@@H](C)CC | broth microdilution | ATCC 29213, MSSA, Mueller-Hinton broth | 16 h, 37 °C | 1 µg/mL |

A few entries again:
| SMILES | assay | test system | setting | MIC |
| --- | --- | --- | --- | --- |
| CC(C)C[C@@H]1NC(=O)[C@H](C)NC(=O)[C@H](NC(=O)[C@H](C)NC(=O)[C@@H](CCCCN)NC(=O)[C@@H](CC(C)C)NC(=O)[C@@H](N)Cc2ccccc2)[C@H](C(N)=O)OC(=O)[C@H](CC(C)C)NC1=O | – | MRSA ATCC 700698 | TFA salt | 8 µg/mL |
| CC(C)C[C@H](NC(=O)[C@H](CC(C)C)NC(=O)[C@H](CCCNC(=N)N)NC(=O)[C@H](CCCNC(=N)N)NC(=O)[C@H](CC(C)C)NC(=O)[C@H](CC(C)C)NC(=O)[C@H](CCCNC(=N)N)NC(=O)CCCCCNC(=O)/C=C/c1ccc(O)c(O)c1)C(=O)N[C@@H](CCCNC(=N)N)C(N)=O | broth microdilution | ATCC 25923 | 24 h, 37 °C | 73 µM |
